Measured values gathered from unrelated publications.
Parts stem from different laboratories: compare values within a part only.
Sequence of UniProt Q15139 (whole entry, looked up): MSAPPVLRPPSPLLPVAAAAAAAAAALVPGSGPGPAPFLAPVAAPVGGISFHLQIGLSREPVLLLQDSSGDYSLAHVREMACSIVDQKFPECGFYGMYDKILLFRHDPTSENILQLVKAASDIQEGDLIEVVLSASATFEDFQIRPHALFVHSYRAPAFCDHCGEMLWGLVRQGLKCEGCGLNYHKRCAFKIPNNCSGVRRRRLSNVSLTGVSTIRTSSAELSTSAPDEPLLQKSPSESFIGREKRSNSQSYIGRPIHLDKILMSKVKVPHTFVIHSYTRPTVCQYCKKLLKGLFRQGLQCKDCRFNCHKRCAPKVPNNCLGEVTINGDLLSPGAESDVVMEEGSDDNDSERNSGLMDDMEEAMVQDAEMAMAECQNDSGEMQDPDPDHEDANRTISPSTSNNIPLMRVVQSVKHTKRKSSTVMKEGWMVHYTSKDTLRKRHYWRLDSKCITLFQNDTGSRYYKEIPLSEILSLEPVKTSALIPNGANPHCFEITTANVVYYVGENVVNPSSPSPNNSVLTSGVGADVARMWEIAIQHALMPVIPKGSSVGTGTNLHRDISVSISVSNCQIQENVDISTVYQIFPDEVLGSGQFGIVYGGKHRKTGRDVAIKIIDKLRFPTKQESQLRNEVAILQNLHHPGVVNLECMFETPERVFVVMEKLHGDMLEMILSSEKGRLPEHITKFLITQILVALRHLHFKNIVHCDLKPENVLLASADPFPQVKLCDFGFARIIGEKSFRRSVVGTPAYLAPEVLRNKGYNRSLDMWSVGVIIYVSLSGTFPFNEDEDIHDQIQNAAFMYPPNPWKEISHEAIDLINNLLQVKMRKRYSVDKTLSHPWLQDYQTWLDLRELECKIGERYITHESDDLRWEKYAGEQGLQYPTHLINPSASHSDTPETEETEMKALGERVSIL
Sequence of UniProt Q13163 (whole entry, looked up): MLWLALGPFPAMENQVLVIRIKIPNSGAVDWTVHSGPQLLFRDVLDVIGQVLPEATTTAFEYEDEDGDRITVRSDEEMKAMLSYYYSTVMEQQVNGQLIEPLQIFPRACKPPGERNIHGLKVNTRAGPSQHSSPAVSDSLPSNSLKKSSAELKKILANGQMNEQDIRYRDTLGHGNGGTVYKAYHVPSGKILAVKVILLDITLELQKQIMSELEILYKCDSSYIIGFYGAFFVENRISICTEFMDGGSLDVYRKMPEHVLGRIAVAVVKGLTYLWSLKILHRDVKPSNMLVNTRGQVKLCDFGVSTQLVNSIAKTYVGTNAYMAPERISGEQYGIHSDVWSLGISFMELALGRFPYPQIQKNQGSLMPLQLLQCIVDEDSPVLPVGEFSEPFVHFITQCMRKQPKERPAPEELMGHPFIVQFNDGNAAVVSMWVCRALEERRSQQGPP

Block 1 — concentration: 1 µM
Compound: COc1ccc2[nH]c3c4[nH]c5ccc(OC)cc5c4c4c(c3c2c1)C(=O)NC4=O
target | method | setting | relative to | remaining binding [%]
Serine/threonine-protein kinase 35 (STK35, Homo sapiens, UniProt Q8TDR2) | competitive binding panel |  | vehicle | 80
Vascular endothelial growth factor receptor 3 (FLT4, Homo sapiens, UniProt P35916) | competitive binding panel |  | vehicle | 71
Receptor-type tyrosine-protein kinase FLT3 (FLT3, Homo sapiens, UniProt P36888) | competitive binding panel |  | vehicle | 28
Serine/threonine-protein kinase PAK 3 (PAK3, Homo sapiens, UniProt O75914) | competitive binding panel |  | vehicle | 4.2
Serine/threonine-protein kinase RIO1 (RIOK1, Homo sapiens, UniProt Q9BRS2) | competitive binding panel |  | vehicle | 58
LIM domain kinase 1 (LIMK1, Homo sapiens, UniProt P53667) | competitive binding panel |  | vehicle | 91
Calcium/calmodulin-dependent protein kinase kinase 1 (CAMKK1, Homo sapiens, UniProt Q8N5S9) | competitive binding panel |  | vehicle | 78
Microtubule-associated serine/threonine-protein kinase 1 (MAST1, Homo sapiens, UniProt Q9Y2H9) | competitive binding panel |  | vehicle | 45
Aurora kinase C (AURKC, Homo sapiens, UniProt Q9UQB9) | competitive binding panel |  | vehicle | 17
Serine/threonine-protein kinase D1 (PRKD1, Homo sapiens, UniProt Q15139) | competitive binding panel |  | vehicle | 68
Tyrosine-protein kinase ABL1 (ABL1, Homo sapiens, UniProt P00519) | competitive binding, scanMAX | phosphorylated, 1000 nM |  | 57
Serine/threonine-protein kinase PLK3 (PLK3, Homo sapiens, UniProt Q9H4B4) | competitive binding panel |  | vehicle | 88

Block 2 — Structure (SMILES): FC(F)(F)c1ccc2c(c1)nc(-c1cccnc1)n2C1CC1; method: competition with immobilised ligand; concentration: 1 µM
target | read-out | remaining binding [%]
Microtubule-associated serine/threonine-protein kinase 1 (MAST1, Homo sapiens, UniProt Q9Y2H9) | cell-free assay | 100
Macrophage-stimulating protein receptor (MST1R, Homo sapiens, UniProt Q04912) | cell-free assay | 100
Dual specificity mitogen-activated protein kinase kinase 5 (MAP2K5, Homo sapiens, UniProt Q13163) | cell-free assay | 96
Serine/threonine-protein kinase PAK 6 (PAK6, Homo sapiens, UniProt Q9NQU5) | cell-free assay | 100
TGF-beta receptor type-2 (TGFBR2, Homo sapiens, UniProt P37173) | cell-free assay | 100
Tyrosine-protein kinase ABL1, phosphorylated (ABL1, Homo sapiens, UniProt P00519, E255K) | binding | 100
Serine/threonine-protein kinase Nek1 (NEK1, Homo sapiens, UniProt Q96PY6) | cell-free assay | 100
Fibroblast growth factor receptor 3 (FGFR3, Homo sapiens, UniProt P22607, G697C) | cell-free assay | 100
Serine/threonine-protein kinase mTOR (MTOR, Homo sapiens, UniProt P42345) | cell-free assay | 80
Interleukin-1 receptor-associated kinase 4 (IRAK4, Homo sapiens, UniProt Q9NWZ3) | cell-free assay | 100
Mitogen-activated protein kinase 15 (MAPK15, Homo sapiens, UniProt Q8TD08) | cell-free assay | 100
High affinity nerve growth factor receptor (NTRK1, Homo sapiens, UniProt P04629) | cell-free assay | 100
Serine/threonine-protein kinase RIO2 (RIOK2, Homo sapiens, UniProt Q9BVS4) | cell-free assay | 100
3-phosphoinositide-dependent protein kinase 1 (PDPK1, Homo sapiens, UniProt O15530) | cell-free assay | 94
Mitogen-activated protein kinase kinase kinase 10 (MAP3K10, Homo sapiens, UniProt Q02779) | cell-free assay | 100
Serine/threonine-protein kinase PAK 4 (PAK4, Homo sapiens, UniProt O96013) | cell-free assay | 100
Hormonally up-regulated neu tumor-associated kinase (HUNK, Homo sapiens, UniProt P57058) | cell-free assay | 100
Tyrosine-protein kinase Fyn (FYN, Homo sapiens, UniProt P06241) | cell-free assay | 100
Phosphorylase b kinase gamma catalytic chain, skeletal muscle/heart isoform (PHKG1, Homo sapiens, UniProt Q16816) | cell-free assay | 100
Serine/threonine-protein kinase TAO2 (TAOK2, Homo sapiens, UniProt Q9UL54) | cell-free assay | 99
Serine/threonine-protein kinase D2 (PRKD2, Homo sapiens, UniProt Q9BZL6) | cell-free assay | 100
Protein kinase C eta type (PRKCH, Homo sapiens, UniProt P24723) | cell-free assay | 100
Ephrin type-B receptor 4 (EPHB4, Homo sapiens, UniProt P54760) | cell-free assay | 100
Tyrosine-protein kinase ABL1, phosphorylated (ABL1, Homo sapiens, UniProt P00519, T315I) | cell-free assay | 100
Serine/threonine-protein kinase D1 (PRKD1, Homo sapiens, UniProt Q15139) | cell-free assay | 100

Block 3 — read-out: enzyme activity; action: inhibitor; concentration: 0.5 µM; relative to: control
Target: Serine/threonine-protein kinase ULK1 (ULK1, Homo sapiens, UniProt O75385)
Sequence of UniProt O75385 (whole entry, looked up): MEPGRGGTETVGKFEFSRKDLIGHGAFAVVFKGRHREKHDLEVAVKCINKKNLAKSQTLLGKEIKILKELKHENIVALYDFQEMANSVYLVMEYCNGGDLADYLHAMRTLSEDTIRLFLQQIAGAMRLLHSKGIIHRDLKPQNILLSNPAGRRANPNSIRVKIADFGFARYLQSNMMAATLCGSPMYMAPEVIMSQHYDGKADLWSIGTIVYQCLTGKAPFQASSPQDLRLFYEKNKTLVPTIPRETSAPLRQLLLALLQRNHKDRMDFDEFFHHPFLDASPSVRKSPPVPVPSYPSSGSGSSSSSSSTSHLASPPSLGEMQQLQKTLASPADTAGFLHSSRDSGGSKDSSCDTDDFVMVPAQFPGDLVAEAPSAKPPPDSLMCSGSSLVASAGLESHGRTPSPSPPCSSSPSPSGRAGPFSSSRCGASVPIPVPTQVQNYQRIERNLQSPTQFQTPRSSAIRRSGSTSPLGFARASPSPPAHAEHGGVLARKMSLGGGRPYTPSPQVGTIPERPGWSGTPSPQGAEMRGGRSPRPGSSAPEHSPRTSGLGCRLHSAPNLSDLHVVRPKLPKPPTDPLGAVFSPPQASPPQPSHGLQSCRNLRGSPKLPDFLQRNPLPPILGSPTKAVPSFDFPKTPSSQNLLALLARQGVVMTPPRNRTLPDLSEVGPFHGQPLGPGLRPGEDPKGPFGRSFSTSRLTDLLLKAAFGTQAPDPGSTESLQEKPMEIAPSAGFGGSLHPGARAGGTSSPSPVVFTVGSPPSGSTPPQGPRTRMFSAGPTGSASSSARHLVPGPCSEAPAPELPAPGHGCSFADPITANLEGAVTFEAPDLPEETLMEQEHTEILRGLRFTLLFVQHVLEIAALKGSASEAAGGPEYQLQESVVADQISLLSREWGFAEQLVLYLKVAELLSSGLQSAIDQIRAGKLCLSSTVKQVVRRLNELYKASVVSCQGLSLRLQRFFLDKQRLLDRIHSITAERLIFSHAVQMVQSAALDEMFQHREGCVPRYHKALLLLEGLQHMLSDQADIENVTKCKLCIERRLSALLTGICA
SMILES | remaining activity [%]
O=C1C(Cl)=C(N2C(=O)CCC2=O)C(=O)c2ccccc21 | 107
O=C1c2ccccc2-c2n[nH]c3cccc1c23 | 62.2
c1ccc(-c2cnc(Nc3ccc(OCCN4CCCC4)cc3)s2)cc1 | 127
O=C(NC(NC(=S)Nc1ccc(F)c([N+](=O)[O-])c1)C(Cl)(Cl)Cl)C(c1ccccc1)c1ccccc1 (centres unmarked) | 99.1
Cc1cc2ncc(-c3ccccc3)nc2cc1C | 84.1
Nc1cccc(-c2cc3c(Oc4cccc(O)c4)ncnc3[nH]2)c1 | 143
N#C/C(=C\c1ccc(O)c(O)c1)C(=O)NCc1ccccc1 | 92.9
c1ccc(-c2[nH]ncc2-c2ccnc3ccccc23)nc1 | 85.9
CCN(CC)C(=O)c1ccc(Nc2nc(OCC3CCCCC3)c3[nH]cnc3n2)cc1 | 77.7
CCN(CC)CCNC(=O)c1c(C)[nH]c(/C=C2\C(=O)Nc3ccc(F)cc32)c1C | 16.3
Cc1nc2cc3nc(-c4cccs4)cnc3cc2n1C | 84.6
CN([C@@H](Cc1ccc(OS(=O)(=O)c2cccc3cnccc23)cc1)C(=O)N1CCN(c2ccccc2)CC1)S(=O)(=O)c1cccc2cnccc12 | 101
COc1cc2c(cc1OC)-c1[nH]nc(Nc3cccc(F)c3)c1C2 | 103
CN(C)C[C@H]1CCn2c(c(C3=C(c4cn(C)c5ccccc45)C(=O)NC3=O)c3ccccc32)C1 | 98.9
Ic1cccc(CSc2nnc(-c3ccncc3)o2)c1 | 97.1
CCOc1nc(NC(=O)Cc2cc(OC)ccc2OC)cc(N)c1C#N | 103
O=C(Nc1cccc(Nc2nccc(Nc3cccc(C(F)(F)F)c3)n2)c1)C1CC1 | 105
COc1cc2ncnc(Nc3cccc(Cl)c3)c2cc1OC | 84.7
O=c1cc(-c2cccc3c2Sc2ccccc2S3)oc(N2CCOCC2)c1 | 91.9
Cn1nc2c3c(cccc31)C(=O)c1ccccc1-2 | 101
Cc1cn(-c2cc(NC(=O)c3ccc(C)c(Nc4nccc(-c5cccnc5)n4)c3)cc(C(F)(F)F)c2)cn1 | 101
COc1cc2ncnc(Nc3ccc(O)c(Br)c3)c2cc1OC | 87.2
N#Cc1c(NC(=O)c2cccc3ccccc23)sc2c1CCCC2 | 99.8
C[C@@H]1CCN(C(=O)CC#N)C[C@@H]1N(C)c1ncnc2[nH]ccc12 | 83
CCN(CC)CCNC(=O)c1c(C)[nH]c(/C=C2\C(=O)Nc3ccc(Cl)cc32)c1C | 13.6

Block 4 — read-out: enzyme activity; action: inhibitor; concentration: 77 µM; relative to: untreated
Target: DNA polymerase theta, ATPase domain (POLQ, Homo sapiens, UniProt O75417)
Sequence of UniProt O75417 (whole entry, unmodified, looked up): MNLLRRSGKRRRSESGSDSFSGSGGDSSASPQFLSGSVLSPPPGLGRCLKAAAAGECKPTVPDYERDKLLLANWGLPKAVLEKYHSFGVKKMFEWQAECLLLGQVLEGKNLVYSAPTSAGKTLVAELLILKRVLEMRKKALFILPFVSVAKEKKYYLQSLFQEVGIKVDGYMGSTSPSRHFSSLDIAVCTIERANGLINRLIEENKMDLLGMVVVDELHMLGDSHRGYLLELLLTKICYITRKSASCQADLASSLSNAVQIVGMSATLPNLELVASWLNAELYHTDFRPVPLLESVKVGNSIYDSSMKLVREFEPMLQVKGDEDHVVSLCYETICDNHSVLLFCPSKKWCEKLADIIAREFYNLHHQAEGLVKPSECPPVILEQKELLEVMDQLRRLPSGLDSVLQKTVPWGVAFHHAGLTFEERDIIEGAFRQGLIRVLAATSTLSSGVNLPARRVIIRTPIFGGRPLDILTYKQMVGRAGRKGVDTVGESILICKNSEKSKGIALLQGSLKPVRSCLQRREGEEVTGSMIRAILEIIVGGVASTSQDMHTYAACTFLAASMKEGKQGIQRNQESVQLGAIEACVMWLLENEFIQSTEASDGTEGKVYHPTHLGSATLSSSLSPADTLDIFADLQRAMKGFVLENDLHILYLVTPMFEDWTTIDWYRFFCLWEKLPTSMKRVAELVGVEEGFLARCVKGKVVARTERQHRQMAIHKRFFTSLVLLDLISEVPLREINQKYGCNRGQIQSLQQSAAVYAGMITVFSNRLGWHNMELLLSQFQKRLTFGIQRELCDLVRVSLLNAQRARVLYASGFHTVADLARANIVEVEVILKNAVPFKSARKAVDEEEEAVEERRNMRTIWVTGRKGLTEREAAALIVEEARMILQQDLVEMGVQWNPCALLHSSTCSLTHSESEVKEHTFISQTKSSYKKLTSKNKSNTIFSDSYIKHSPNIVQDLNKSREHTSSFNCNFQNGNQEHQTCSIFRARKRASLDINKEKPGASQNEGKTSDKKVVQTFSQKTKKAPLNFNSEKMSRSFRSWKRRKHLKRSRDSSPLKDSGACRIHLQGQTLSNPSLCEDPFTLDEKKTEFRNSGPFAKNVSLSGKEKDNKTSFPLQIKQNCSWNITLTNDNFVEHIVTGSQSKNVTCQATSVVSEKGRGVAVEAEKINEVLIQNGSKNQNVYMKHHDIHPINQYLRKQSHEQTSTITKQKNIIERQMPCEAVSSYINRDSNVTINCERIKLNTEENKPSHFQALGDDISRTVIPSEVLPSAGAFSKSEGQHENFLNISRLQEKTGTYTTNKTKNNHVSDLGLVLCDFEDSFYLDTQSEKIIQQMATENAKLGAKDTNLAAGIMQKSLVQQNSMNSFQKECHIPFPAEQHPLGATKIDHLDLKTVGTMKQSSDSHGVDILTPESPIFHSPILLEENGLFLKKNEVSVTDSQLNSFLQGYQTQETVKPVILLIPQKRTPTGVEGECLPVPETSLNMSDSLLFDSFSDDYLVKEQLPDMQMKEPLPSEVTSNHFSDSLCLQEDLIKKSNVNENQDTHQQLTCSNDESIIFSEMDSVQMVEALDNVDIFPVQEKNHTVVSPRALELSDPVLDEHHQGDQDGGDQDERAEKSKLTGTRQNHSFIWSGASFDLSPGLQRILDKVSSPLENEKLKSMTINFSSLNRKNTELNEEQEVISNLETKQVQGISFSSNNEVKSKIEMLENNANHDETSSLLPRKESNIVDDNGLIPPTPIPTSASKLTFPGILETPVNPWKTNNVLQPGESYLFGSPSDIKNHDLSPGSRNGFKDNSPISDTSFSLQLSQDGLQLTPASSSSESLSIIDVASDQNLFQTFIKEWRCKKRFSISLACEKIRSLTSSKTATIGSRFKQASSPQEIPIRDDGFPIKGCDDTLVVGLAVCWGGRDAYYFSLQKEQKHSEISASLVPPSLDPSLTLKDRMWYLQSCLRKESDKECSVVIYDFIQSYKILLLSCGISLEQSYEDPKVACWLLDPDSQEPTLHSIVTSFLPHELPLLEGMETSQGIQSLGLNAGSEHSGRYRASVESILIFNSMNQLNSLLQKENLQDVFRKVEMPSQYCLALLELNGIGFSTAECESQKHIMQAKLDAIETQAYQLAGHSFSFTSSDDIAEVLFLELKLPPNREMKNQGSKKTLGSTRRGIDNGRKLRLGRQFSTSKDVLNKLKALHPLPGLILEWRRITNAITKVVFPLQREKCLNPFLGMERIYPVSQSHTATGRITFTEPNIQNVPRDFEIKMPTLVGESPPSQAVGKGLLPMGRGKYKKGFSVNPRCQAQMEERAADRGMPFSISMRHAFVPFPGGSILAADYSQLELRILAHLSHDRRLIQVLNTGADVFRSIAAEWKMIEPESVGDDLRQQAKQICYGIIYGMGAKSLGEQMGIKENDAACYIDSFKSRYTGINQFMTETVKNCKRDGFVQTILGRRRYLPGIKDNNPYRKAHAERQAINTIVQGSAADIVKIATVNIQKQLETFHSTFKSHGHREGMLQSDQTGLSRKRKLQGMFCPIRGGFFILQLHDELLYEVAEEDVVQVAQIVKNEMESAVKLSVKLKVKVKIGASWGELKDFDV
Compound | remaining activity
O=c1[nH][nH]c2nnc(-c3c(-c4ccccc4)nn4ccccc34)cc12 | 103%
CC1(C)O[C@@H]2C[C@H]3[C@@H]4C[C@H](F)C5=CC(=O)CC[C@]5(C)[C@H]4[C@@H](O)C[C@]3(C)[C@]2(C(=O)CO)O1 | 97.3%
COCc1nc2c([nH]1)c(=O)n(C)c(=O)n2CC(C)C | 102%
Oc1ccc(C2CNCCc3c2cc(O)c(O)c3Cl)cc1 (centres unmarked) | 95.9%
COc1cc2c(cc1OC)[C@@H]1Cc3ccc(OC)c(OC)c3CN1CC2 | 95%
S=C(S)N1CCCC1 | 90.8%
CCOC(=O)[C@H]1O[C@@H]1C(=O)N[C@@H](CC(C)C)C(=O)NCCC(C)C | 90.9%
C[C@H]1[C@H]2CC[C@H]3[C@@H]4CC=C5C[C@@H](N(C)C)CC[C@]5(C)[C@H]4CC[C@]23CN1C | 93.2%
OC[C@H]1OC(O)[C@H](O)[C@@H](O)[C@@H]1O (some centres unmarked) | 95.9%
CC(C)(C)OC(=O)N[C@H]1CCCCC/C=C\[C@@H]2C[C@@]2(C(=O)NS(=O)(=O)C2CC2)NC(=O)[C@@H]2C[C@@H](OC(=O)N3Cc4cccc(F)c4C3)CN2C1=O | 92.6%
Cc1ccc2c(=O)c3cccc(CC(=O)O)c3oc2c1C | 92.8%
CC(=O)C1=C(O)C=C2Oc3c(C(C)=O)c(O)c(C)c(O)c3C2(C)C1=O (single isomer, unassigned; (+)) | 104%
CC(COc1ccccc1)NC(C)C(O)c1ccc(O)cc1 (centres unmarked) | 99.1%
N#Cc1ccc2[nH]cc(CCCCN3CCN(c4ccc5oc(C(N)=O)cc5c4)CC3)c2c1 | 103%
Clc1ccc(C(c2ccc(Cl)cc2)[n+]2ccn(CC(OCc3ccc(Cl)cc3Cl)c3ccc(Cl)cc3Cl)c2)cc1 (centres unmarked) | 97.2%
O=C(Nc1ccccc1)c1ccccc1O | 91.2%
CN(C(=O)CCCOc1ccc2[nH]c(=O)ccc2c1)C1CCCCC1 | 104%
C[C@H](NCc1ccc(OCc2cccc(F)c2)cc1)C(N)=O | 97.6%

For quick reference, copied from above (block 3):
SMILES | remaining activity [%]
N#Cc1c(NC(=O)c2cccc3ccccc23)sc2c1CCCC2 | 99.8
COc1cc2ncnc(Nc3ccc(O)c(Br)c3)c2cc1OC | 87.2
Cc1cn(-c2cc(NC(=O)c3ccc(C)c(Nc4nccc(-c5cccnc5)n4)c3)cc(C(F)(F)F)c2)cn1 | 101
O=C1C(Cl)=C(N2C(=O)CCC2=O)C(=O)c2ccccc21 | 107
Cc1nc2cc3nc(-c4cccs4)cnc3cc2n1C | 84.6
C[C@@H]1CCN(C(=O)CC#N)C[C@@H]1N(C)c1ncnc2[nH]ccc12 | 83
Ic1cccc(CSc2nnc(-c3ccncc3)o2)c1 | 97.1
Cn1nc2c3c(cccc31)C(=O)c1ccccc1-2 | 101
O=C(Nc1cccc(Nc2nccc(Nc3cccc(C(F)(F)F)c3)n2)c1)C1CC1 | 105
c1ccc(-c2[nH]ncc2-c2ccnc3ccccc23)nc1 | 85.9
